Experimental data pooled from the literature.
Protocols differ between the studies behind these lines. Numbers after ± are the reported error.

COc1ccc(C[C@@H]2NC(=O)[C@H]([C@@H](C)O)NC(=O)[C@@H]3[C@@H]4CCN3C(=O)[C@@H]3Cc5cn(c6ccc(F)cc56)CCCCCCN(Cc5ccc(cc5)CCNC(=O)[C@]5(C)CCCN5C2=O)C(=O)CCC(=O)N[C@@H](C)C(=O)N[C@H](CNC(=O)CCCCC[N+](C)(C)C)C(=O)N[C@@H](Cc2cccc(c2)CNC(=O)CO4)C(=O)N3)cc1 — participants with adverse event (item: Nasopharyngitis; humans; concentration not given, Study-001): 13.7%
Cn1cc(-c2nc(N[C@@H]3CCCC[C@@H]3N)c(F)c3c2C(=O)NC3)cn1 — hemorrhagic adverse events (item: Rectal haemorrhage; patients with relapsed or refractory AML; oral, dose not given, all doses): 9%
Nc1ncnc2c1ncn2[C@@H]1O[C@@H]2COP(=O)([S-])O[C@@H]3[C@H](O)[C@@H](COP([O-])(=S)O[C@H]2[C@H]1O)O[C@H]3n1cnc2c(N)ncnc21.[Na+].[Na+] (some centres unmarked) — total bile acids (non-tumor-bearing mice, serum; intravenous, 1 mg/kg, toxicity study): 7.69 ± 1.33 µmol/L
CC(C)(c1ccccc1)c1cc(-n2nc3ccccc3n2)c(O)c(C(C)(C)c2ccccc2)c1 — daily dermal uptake, percentile (exposure assessment; human, age 2-3 years; concentration not given, spray sunscreen, 95th percentile): 74.4 ng/kg body weight/day
COc1cc2c(Oc3ccc4[nH]c(C)cc4c3F)ccnc2cc1OCC1(N)CC1 — grade 3 Leukopenia (paediatric recurrent refractory sarcoma; 10 mg): 0%
CN1CCN(S(=O)(=O)c2cc([N+](=O)[O-])ccc2N(CCOS(C)(=O)=O)CCOS(C)(=O)=O)CC1 — apparent volume Vz/F (naive NSG mice, plasma; intraperitoneal, 10 mg/kg): 1.13 (mg/kg)/(µM)
C=CC(=O)N1CC[C@H](n2nc(C#Cc3cc(OC)cc(OC)c3)c3c(N)ncnc32)C1 — adverse drug reaction incidence (patients with advanced solid tumours; oral, dose not given, Nausea, any grade, QD, added: ferric citrate hydrate): 0%
CC(C)C[C@H](NC(=O)[C@H](Cc1ccccc1)NC(=O)[C@H](Cc1ccccc1)NC(=O)Cc1ccc(-c2ccccc2)cc1)C(=O)N[C@@H](CCCCN)C(=O)N[C@@H](CCCNC(=N)N)C(=O)N[C@H](C(=O)N[C@@H](Cc1c[nH]c2ccccc12)C(=O)N[C@@H](CCCCN)C(=O)N[C@@H](CCCNC(=N)N)C(=O)O)C(C)C — intrinsic clearance (dog liver microsomes): 52.6 mL/min/kg
Clc1cc2c(cc1Cl)Oc1c(ccc(Cl)c1Cl)O2 — dose fraction in permeate (ultrafiltration; cow milk whey; 20 nM nominal in whole milk): 13.3%
O=S(=O)(Nc1ccc2c(c1)B(O)OC2)c1ccc(Cl)cc1 — acceptor concentration (PAMPA; pre-coated trilayer membrane; 200 µM, 5 h, pH 7.4, acceptor plate, PBS): 8.4 ± 2.6 µM
CC(C)(O)c1cc(Nc2cc(Oc3cn(C4CC4)nc3C3CCOCC3)ccn2)ccn1 — treatment-related adverse events (Thrombocytopenia; patients with advanced cancer, grade 4 glioma expansion; oral, 50 mg twice daily, grade ≥3, 2 weeks on/2 weeks off schedule): 0%
CC(=O)c1c(C)c2cnc(Nc3ccc(C4CCN(CCS(C)(=O)=O)CC4)cn3)nc2n(C2CCCC2)c1=O — AUC(0-inf) (human, dose-escalation trial, plasma; oral, 75 mg twice daily, day 21, multiple doses): 2710 ng·h/mL
CC(=O)NCC(=O)NCC(=O)N[C@H](C(=O)N[C@@H](Cc1ccc(O)cc1)C(=O)N[C@@H](CO)C(=O)N[C@H]1CSSC[C@@H](C(=O)N[C@@H](CCCNC(=N)N)C(=O)N2CCC[C@H]2C(=O)N[C@@H](CCC(N)=O)C(=O)N[C@@H](CCCNC(=N)N)C(=O)NCC(=O)NCCC(=O)N[C@@H](CCCCNC(=O)CN(CC(=O)NCCCC[C@H](NC(=O)CCNC(=O)CNC(=O)[C@H](CCCNC(=N)N)NC(=O)[C@H](CCC(N)=O)NC(=O)[C@@H]2CCCN2C(=O)[C@H](CCCNC(=N)N)NC(=O)[C@@H]2CSSC[C@H](NC(=O)[C@H](CO)NC(=O)[C@H](Cc3ccc(O)cc3)NC(=O)[C@@H](NC(=O)CNC(=O)CNC(C)=O)[C@@H](C)O)C(=O)N[C@@H](Cc3c[nH]cn3)C(=O)N[C@@H](Cc3ccccc3)C(=O)NCC(=O)N[C@@H](C)C(=O)N[C@@H](CC(C)C)C(=O)N[C@@H]([C@@H](C)O)C(=O)N[C@@H](Cc3c[nH]c4ccccc34)C(=O)N[C@@H](C(C)C)C(=O)N2)C(N)=O)C(=O)CCN)C(N)=O)NC(=O)[C@H](C(C)C)NC(=O)[C@H](Cc2c[nH]c3ccccc23)NC(=O)[C@H]([C@@H](C)O)NC(=O)[C@H](CC(C)C)NC(=O)[C@H](C)NC(=O)CNC(=O)[C@H](Cc2ccccc2)NC(=O)[C@H](Cc2c[nH]cn2)NC1=O)[C@@H](C)O — serum concentration (MSD immunoassay; BALB/c mice, healthy female, serum; subcutaneous, 0.08 mg/kg, 4 h, LLOQ 2.0 ng/mL): not detected
CCCC1CCC(C2CCC(c3ccc(F)c(F)c3)CC2)CC1 (centres unmarked) — median fetal accumulation (rat, fetus; 5000 ng/mL in perfusate, high dose, mixture of 21 LCMs): 1.24 ng/g

A few entries again:
CC(C)(c1ccccc1)c1cc(-n2nc3ccccc3n2)c(O)c(C(C)(C)c2ccccc2)c1 — daily dermal uptake, percentile (exposure assessment; human, age 2-3 years; concentration not given, spray sunscreen, 95th percentile): 74.4 ng/kg body weight/day
